Published values collected from several papers.
Numbered parts are unrelated; each lists some results of a single study.

Set 1
Target: Sal-like protein 4, full length isoform B (SALL4, Homo sapiens, UniProt Q9UJQ4-2, residues 1-616)
Method: universal PBM
Form: double-stranded DNA, one strand shown
Sample: in vitro
Tested at: not given
Notes: 8-mer, flanks averaged, mean of replicates
Reading: higher = stronger binding
Measurement: E-score
Target sequence (chain): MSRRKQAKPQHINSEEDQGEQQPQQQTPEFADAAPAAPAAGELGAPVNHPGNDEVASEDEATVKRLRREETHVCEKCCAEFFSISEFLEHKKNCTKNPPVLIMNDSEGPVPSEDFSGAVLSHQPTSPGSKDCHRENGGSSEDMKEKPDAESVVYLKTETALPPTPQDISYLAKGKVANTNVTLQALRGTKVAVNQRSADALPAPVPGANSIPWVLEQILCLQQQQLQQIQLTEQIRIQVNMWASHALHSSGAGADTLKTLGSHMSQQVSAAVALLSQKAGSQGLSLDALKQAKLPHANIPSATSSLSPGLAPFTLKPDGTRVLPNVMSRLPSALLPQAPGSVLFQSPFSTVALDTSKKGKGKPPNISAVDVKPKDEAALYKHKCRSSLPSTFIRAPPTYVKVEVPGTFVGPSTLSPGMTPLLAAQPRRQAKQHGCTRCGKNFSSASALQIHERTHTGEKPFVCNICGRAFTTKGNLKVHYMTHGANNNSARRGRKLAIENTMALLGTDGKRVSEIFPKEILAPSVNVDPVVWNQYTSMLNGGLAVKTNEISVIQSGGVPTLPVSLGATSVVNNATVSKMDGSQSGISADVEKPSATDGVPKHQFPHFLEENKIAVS
AACTTATT: 0.318
AGGACCCC: -0.244
ATCTGCGA: -0.149
AGATAATC: 0.153
CGGGTGAA: -0.17
ACAAAAAA: 0.31
ACTTAACC: 0.18
AGTCGCGC: -0.207
GACTTGTA: 0.173
ACACCGAC: -0.244
AACACTAC: 0.0707
GTTCTGGA: -0.00196
AGTGTCAT: 0.17
AAGGCCAT: 0.0037
GGCAATGA: -0.0725
GTTAATAA: 0.411
CGAGAATC: -0.0789
CACTCCAA: -0.0417
TGACGTCA: 0.212
AGCCTCCC: -0.199
AGACCGAG: -0.239
TATCAGAA: 0.114
GATCGACC: -0.354
CAACGGTG: -0.265
CCAGAAGG: -0.108

Set 2
Target: Interferon regulatory factor 5, full length, phosphomimetic (IRF5, Homo sapiens, UniProt Q13568-2, residues 1-514, S451D/S453D/S456D/S462D)
Method: protein-binding microarray
Form: double-stranded DNA, one strand shown
Sample: in vitro
Tested at: 940 nM top
Notes: 60-bp whole probe
With: salmon DNA 0.4 mg/ml
Reference: random background probes
Reading: higher = stronger binding
Measurement: fitted relative affinity
All sequences stand within: GCCTAGCAC … GTCTTGATTCGCTTGACGCTGCTG
GACGGCATCCTTTTCCTGACGTGCTAG: -0.0999 z-score
TTAGGTTGCGGGTTTCGGTTAGTGCTA: 5.56 z-score
TTAGTTATCCTTTTCCTTTAGTGCTAG: 1.42 z-score
TTAGGTCTCCTACTGCATTAGTGCTAG: -0.046 z-score
GACGGTTTAGGGTATCGGGACGTGCTA: 0.853 z-score
GGAGGTCTGGATGTGCCGCGGTGCTAG: -0.553 z-score
TTCGATCTCAGTTTCGATTAGTGCTAG: 8.35 z-score
TTAGGCCTGGGTTTCGGTTAGTGCTAG: 7.05 z-score
TTTGCTCTGTGCATAGGTCTGTGCTAG: -0.297 z-score
TCATTTTACTTTCTATGACTGTGCTAG: 2.29 z-score
TTAGAACAGGGGACTGGATTAGTGCTA: 0.485 z-score
CTTCCCCTCTCATTCCAATTGTGCTAG: 1.62 z-score
TGTCATTTTCTCTTATTCTAGTGCTAG: 2.39 z-score
TTTGGTTTCCTTTCCCTTTAGTGCTAG: 3.96 z-score
TTTGGTATCGACACTGGGTTAGTGCTA: 7.67 z-score
TCATTTCTATTTTCTGAACTGTGCTAG: 1.3 z-score
TTAGGTGCCCTTTTCCTTTAGTGCTAG: 0.0251 z-score
GAAGGTTTCCTTTCCCTGACGTGCTAG: 2.01 z-score
GGCGGTATCCTACTGCTGACGTGCTAG: -0.186 z-score

Set 3
Target: RNA binding protein fox-1 homolog 2, RRM domain, GST-SBP tag (RBFOX2, Homo sapiens, UniProt O43251-10, residues 100-194)
Method: RNA Bind-n-Seq
Form: RNA
Sample: in vitro
Tested at: 365 nM
Notes: natural RNA segment, single round, ends assumed
Reference: no-protein control
Reading: higher = stronger binding
Measurement: RBNS enrichment (R)
All sequences stand within: GGGAGUUCUACAGUCCGACGAUC … UGGAAUUCUCGGGUGCCAA
Residues (chain): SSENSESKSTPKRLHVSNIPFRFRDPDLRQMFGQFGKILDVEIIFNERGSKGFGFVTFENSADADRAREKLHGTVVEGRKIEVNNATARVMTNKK
AAUAUAGUUAUCUCUACCACUUUCUUUUCUAGUUUCUUGAUUUUCAGCUCAGGCUGCAUUCUAACUCAUACUGUGAAGACAAAGGUGUUUUUGAUUCAGAAAUAUAUGAA: 0.399
CCUGGGGACAUGUGGCUGCUCUAUUGUCUUACUGCGUCCCACAAUAUCUGAAUGUCUCAAUCCAAAACUUGAAGCUCUUUAGACCAAGAACUAGGGAGAGGAAAAAGGAG: 0.284
CUGGACAGGGCUUUGCCCUUGGAGGAUCCCCAGGUGGCCUUACCCGUGAUUCUUACUCGGCAUCCUCCAUUCCCCAAACUCCCUCCUCCCUGUUAAAUGUCAACCUAGAC: 0.625
CGUCCUUUACCAGUGUCAACCCCAGAGGCUUUCUCUCUCCAGAACUGGCCAGCUAGAGACCGUUCUAAAGUCCACUGGAAGUCAAGAAUCUCGUUUACUGAUAAUAGUAA: 0.36
UUUUUGUUUUGUUUUGUUUUCUUUUGUUUCUCCUAAGGGACAAGCAUGGGUGUUUGAUUUCAGAAAUCAGUAUCUGGUGAGAUUUUUGUCUCAAAACUACCAUUUGAAUU: 1.45
GCAGGUGAGGGGGUCUGCGGUGGCUCCUGUCUUCCCUGCAGCAGGGAAGGAGGGCCGUGUGGUGCUUUGCUAGAUAGGACGGUUUUUGCAAAGCACCUGGAGAUGUUUGC: 2.07
UUACACCUGUUUACAAUUUGGGGACAAAAAGGCAGGCUUCAUUUUUCAUAUGUUUGAUGAAAACUGGCUCAAGAUGUUUGUAAAUAGAAUCAAGAGCAAAACUGCACAAA: 0.823
AAAUAGUACAUUGCAUUUUGAAGUUUUGGGUUUUGUCCUUCAUCUUUCCCUUUCCCUUCAAAUCUUUUAAUGGUAAGAAAGCAAGUGAAGCUUGGUGCAAGCUAAAAUUU: 0.731

Set 4
Target: Histone acetyltransferase KAT6A, both winged helices, GST fusion (KAT6A, Homo sapiens, UniProt Q92794, residues 1-181)
Method: protein binding microarray
Form: double-stranded DNA, one strand shown
Sample: in vitro
Tested at: not given
Notes: 8-mer, flanks averaged, mean of 2 arrays, mostly near background
Reference: not given
Reading: higher = stronger binding
Measurement: E-score
Target sequence (chain): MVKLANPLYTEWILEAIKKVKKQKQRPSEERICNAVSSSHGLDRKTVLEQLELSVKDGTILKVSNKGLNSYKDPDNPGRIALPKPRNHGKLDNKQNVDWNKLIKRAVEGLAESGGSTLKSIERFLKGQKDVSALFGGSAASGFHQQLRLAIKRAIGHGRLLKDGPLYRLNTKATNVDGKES
AAGTACTA: -0.0534
GGTGGCAC: -0.0658
CCTGTGTC: -0.0522
CCCACTAA: -0.23
AAGGGTAA: -0.0916
GAGTGCAC: -0.147
GAGCGAGA: -0.0085
AACTTCGT: -0.108
ATAGTTCG: -0.0995
ACTATGCT: -0.155
ACTTGACA: -0.154
GCCGACAC: 0.21
ACTGACCT: -0.231
AGATAAAC: 0.0528
ACTCAAAG: -0.0419
TGACTTAA: -0.155
ATTGGTCG: -0.0785
ACCGCCAT: 0.0641
AGTATAAA: 0.0743
CAGTTTGG: -0.0388
AGCCAAGC: -0.178
TGTGGAAA: -0.163
ATTTGTTG: -0.071
AGCCTAAT: -0.342
CAACCCCG: 0.112
